Experimental data collected from several papers.
A part holds a random share of what one study measured.

Set 1
Target: RING finger protein unkempt homolog, zinc fingers 1-6, GST-SBP tag (UNK, Homo sapiens, UniProt Q9C0B0, residues 30-357)
Sequence of UniProt Q9C0B0 (30-357, looked up): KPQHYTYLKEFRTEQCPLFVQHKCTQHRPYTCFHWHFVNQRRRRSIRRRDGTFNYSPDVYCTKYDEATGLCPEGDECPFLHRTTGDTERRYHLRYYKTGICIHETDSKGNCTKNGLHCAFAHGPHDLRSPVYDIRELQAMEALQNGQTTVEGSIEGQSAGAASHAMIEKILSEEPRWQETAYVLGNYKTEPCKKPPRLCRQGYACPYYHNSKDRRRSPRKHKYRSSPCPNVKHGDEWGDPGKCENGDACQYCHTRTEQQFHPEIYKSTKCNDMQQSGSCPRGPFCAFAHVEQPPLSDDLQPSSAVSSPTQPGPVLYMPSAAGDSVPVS
Method: RNA Bind-n-Seq
Molecule type: RNA
Matrix: in vitro
Concentration: not given
Setting: RNA with constant flanks, human-mouse chimeric sites, ends assumed
Baseline: input RNA pool
Direction: higher = stronger binding
Shared flanks, not repeated: GGGAGUUCUACAGUCCGACGAUC … CAACAGAGGAUUGAGCAUCA
Sequence | bound/input enrichment
AUCAAAUACUUUGGGGACAUCAUUAGUGUGGGACAGAGACUGUUGCAAGGAGCUCGGAUCUUAGGGAUUCCAGUUAUCAUAACGGAACAAUACCCCAAAGGUCUUGGCAGCACCGUUCAA | 0.155 ratio
CCCUCCCCGGGCCACCCACCCCUCCCGCUCCCAGCGGGAGAUCCAGGUUUCUUCUGUUUUCAUAGCAAAUAAGAAAAAUGUUCUACGCACAUUUUGUCCUCAGUAAACGAGGGCCUCUGG | 0.827 ratio
UGGGCACUCUAUCAGAUAUAUUAAUUUUUUAAUGUAGAUAAAAUUUCAAAAAUGAAUGGCUACUUUACACGUUUAACUAGGGUUUUACUAUAUAUGUGUACAUAUGUAUAUAUAUAUAUA | 23.4 ratio
AAAGAGAAACUAAAGCAACUAAUAGAGAAGAGGAUUGGCAAAGAGAAAUUUCAUAGAAAACUAGGAUUUUAUUAGCAACAUGAGUUAUAUUCCAGAGCGUCUCAGAAACCCCAGCCAAAC | 22.2 ratio
UCUUUAAAAAAAAAAUUACCUUUUCUGACAGUGCUUUAUGGAGUAAAGAUCCACGUUCAAGCUCAAAGAGCAAAGGCUUUGCACGGAGCUCAAACAUCUGAUGAAGAAAGAUUUCUGAGA | 0.109 ratio
AUAGAUGAAAUUGAUGUGGACCAGGAAGGAAUUGCUGAAAUGAUCCUGGAUGAAAAUGCUAUAGCUCAGGUCCCACGCCCUGGCACAUCUUUGAAACUCCCUGGCACUAACCAAACAGGA | 0.326 ratio
CCCUCCCCGGGCCACCCGCCCGCCCAACUCCCAGCGGGAGAUCCAGGUUUCUUCUUAUUUCAUAGCAAAUAAGAAAAAUGUUCUACGCACAUUUUGUCCUCAGUAAACGAGGGCCUCUGG | 0.452 ratio
GUGACUGGUGUUAAGAUUUCCCCUCAGCAAAGAAGUGCAGUAGUCACCAUAAUUCCAUCUAUAGUGAGUGCCAGUCAGAUUGUGGAGCUGGUCCCAGACCUCAGUUUAGAUACUGGGACU | 1.08 ratio
UUACCCGAGAACGAGGAUGAGCUGGAGAGCACCAACAGGCGCUACACCAAGAGGGACUGUAGCACUUUUCUCAGAACUAGUGAGACGGGCAUCGUGGACCAGGUCAUGGUCACUCUCAAC | 0.224 ratio
AUAGAUGAAAUUGAUGUAGAUCAGGAAGGAAUUGCUGAAAUGAUCCUGGAUGAAAAUGCUAUUGCUCAGGUCCCACGCCCUGGCACAUCUUUGAAGCUCCCUGGCACUAAUCAGACAGGA | 0.562 ratio
CAGUCCCCGUGUCCCAGUGCAGGACGAGAACAUGGACAACUCAAAGCGGACCCUCUAUUGUAGUUCUUGAUUCUCGAAAUGUGCUAUUAUUGUUUGUCUUUUUUUUUAAAAGAAAAGAGA | 0.116 ratio

Set 2
Target: Histone acetyltransferase KAT6A, winged helix 1, GST fusion (KAT6A, Homo sapiens, UniProt Q92794, residues 1-85)
Method: protein binding microarray
Molecule type: double-stranded DNA, one strand shown
Matrix: in vitro
Concentration: not given
Setting: 8-mer, flanks averaged, mean of 2 arrays, mostly near background
Baseline: not given
Direction: higher = stronger binding
Target sequence (chain): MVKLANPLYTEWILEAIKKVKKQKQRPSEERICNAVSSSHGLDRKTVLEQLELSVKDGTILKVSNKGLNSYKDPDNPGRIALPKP
Sequence | E-score
GTGCGATA | 0.0763
AGTTCGAA | 0.00878
ACGATGCG | 0.133
TATGCCAA | -0.236
ACCTGTAA | -0.0775
ACCGTACG | 0.354
ATAGGAGC | -0.0255
ACTCGATA | -0.0259
AGACGTCT | -0.142
ACAGAAGG | -0.103
GGGGCGGA | 0.258
AATCTATC | -0.149
GCCTCTTA | -0.151
CCTCGGCA | 0.189
GAGCCAGC | -0.0103
ACGAACTA | -0.199
CGCCTAAC | 0.109
TATAGTCA | -0.124
GCTCTACA | -0.0914
CGTAGCAA | -0.047
CAAGCATG | -0.176
CGCGCCGC | 0.456
CATCCATC | -0.0594
GACAGTCC | -0.09

Set 3
Target: RNA binding protein fox-1 homolog 2, RRM domain, GST-SBP tag (RBFOX2, Homo sapiens, UniProt O43251-10, residues 100-194)
Method: RNA Bind-n-Seq
Molecule type: RNA
Matrix: in vitro
Concentration: 365 nM
Setting: natural RNA segment, single round, ends assumed
Baseline: no-protein control
Direction: higher = stronger binding
Shared flanks, not repeated: GGGAGUUCUACAGUCCGACGAUC … UGGAAUUCUCGGGUGCCAA
Construct (chain): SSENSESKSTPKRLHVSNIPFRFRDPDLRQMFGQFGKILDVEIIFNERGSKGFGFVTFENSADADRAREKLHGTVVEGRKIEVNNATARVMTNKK
Sequence | RBNS enrichment (R)
CAGUCAGCAGCCAAAGACCUAACUCAGUCACCUGAAAUGUCACCAACAACAAUCCAGGUCACAUACCUGCCUUCCAGUCAGAAGAGCAAACGCCCUAAGCACUUCCUGGA | 0.204
AAGCCUUCUUCCUUUGCUUCAGGCAGCUGUCACCUUCUCUUUAUUGGUGGUCCUAAGUGGGUCACUUAAGAAAAAAAAGUGUAACAAAUUCUCGCUCCAUGAACCUGGUU | 0.263
GAAACGAAUCCUUGAGAGGAGCACUGUCCCGUCCCUUGCUCCUUAUGGCUGGUCCUCCUUCUUGCUCACUGACCCCUCUCCAGGACACUGUCCCUGAAGCCUUCGCAUCU | 0.744
CUGCUCUUAUCACCUAAACAGGACAGGAGAGCAGAUGCCCCAGCGCCUCUAGUAGAUGGUAGUGGUGGGGCUAGUGUGUGGCUGUUACCUGGGCCGCUCAAAUUCAUUCC | 0.224
GCGAGUGCUAUUGUAGUCUUGGCAAGUGAGCCAAGAACCUAGGAGCAGGGCCAUUCCUACUGAAGGACGGGCCCCCUACGGAGAUGAAAUUUGUUUCCUGGUGAGCACAG | 0.421
CAUGUUUAGUCAAAUUGGAAUCCACUCACCUGUUCCCUUUGUUUUCCCUAUCCCUUCUCCUGAGCACCCUUUGAUUUCUGAGGACAGUACUACCCAUUCAUCUAUUGUAG | 1.4
GAUUUUUUUUUAUUAUUUCAUAAGAAAACUACGUUAAUUUUACCUUACUUUCAUUGUAAAUAAGCCUGUCUUCCUAUCUGGAUUUUUUGUGUGCAUACAUAUUCUACUGA | 1
GCCAAGAGCCGGCCGAAGCGGAGGAGGCCCAGGGCAAAGCGUCCACAACUUGCACAGCAGGCCCACCCUGCAAGGACCCCAUCAGUGUGAGCAUCGCAGUAGCCAGCCAC | 0.961
GGGAAAUCUCAGAACUGGUUUAUUUGGUGUCGUGGAACCUCUUACCGCUUUCAAUACACAAUUAGUAAUCAACUGUUUUGUAUACUUGUUUUCAGUUUUCAUUUCGACAA | 0.352
GAAAUGGGAUGUGAGAAUGAUGAAACCCGACAGAAGUAUCUCAGCCUGCAGUCAGUUAUUAUGUAUAGGAGGUGAGCUAGUUAACAAACUUGUACCACAAAACAAUAUCG | 0.798
UCUAAUAGGAAAGGAUUUCUUCUUUCUUUUUUAAAGAGUGGGUGGAUUUUCUCCCUUUUGUUUUGCUUUUAUUUUCAUGCUACUAACAUAUCUUCAGAAGGAAAUGGCAA | 1.17
CCCUCCUCCUCGGCCUCCCUCCUCCCCUCCUUCGCUCGCUCAACCUCUUUUGUUCAGUACGUGUAACUUGAAGCUAAUUUGUACUACUGGAUAUCUGACUGGAGCCGCAG | 0.41

Set 4
Target: Fragile X messenger ribonucleoprotein 1, C-terminal low-complexity region (Fmr1, Mus musculus, UniProt P35922)
Method: RNA Bind-n-Seq
Molecule type: RNA
Matrix: in vitro
Concentration: 200 nM
Setting: whole 134-nt RNA, ends assumed
Added: 150 mM KCl
Baseline: input library
Direction: higher = stronger binding
Shared flanks, not repeated: GGGAGUUCUACAGUCCGACGAUC … UGGAAUUCUCGGGUGUCAAGG
Sequence | log2 enrichment
GCAGGAAGUAAAAACAAAUGGAAAUGGUUCGGAUAGUGGCAGGGGUGGGGGUUGCUAAGGAAAGGGUGGGAUGGGAGUGGGUAAAGAGUU | 0.177
AGUCCUGUGCUACACAUCGUAUGUACCGAAUCGGGGUUUUUUUGGGGAGGGGAGGGGAAAGUAUUAUGUUACGCCGUUCGGAUCUGCACU | 0.862
GUCCUGUGCUACACAUCGUAUGUACCGAAUCGGAAAAAGGGAAAAAGGGAAAAAGGGGAAAGUAUUAUGUUACGCCGUUCGGAUCUGCAC | -0.0514
GUCCUGUGCUACACAUCGUAUGUACCGAAUCGGGGAAAAAGGAAAAAGGGGAAAAAGGAAAGUAUUAUGUUACGCCGUUCGGAUCUGCAC | -0.0968
AGUCCUGUGCUACACAUCGUAUGUACCGAAUCGGGUUUUUGGGAAAGGGUUUUUGGGAAAGUAUUAUGUUACGCCGUUCGGAUCUGCACU | 0.241
CCUGUGCUACACAUCGUAUGUACCGAAUCGGGUUUUUUGGGGUUUUUUGGGUUUUUUGGGGAAAGUAUUAUGUUACGCCGUUCGGAUCUG | -0.543
CACAGACAACACGCACCCACACAAAAACAGAGGGAAGGGGUUGGGAUGGGGACAGGGUGCACAGCAGGGCGGGGUAGGACCCCAGCCCCU | 1.19
UCAAGUCCUGUGCUACACAUCGUAUGUACCGAAUCGGAAAGGUUUUUUUGGAGGAAAGUAUUAUGUUACGCCGUUCGGAUCUGCACUUCC | -0.835
GUCCUGUGCUACACAUCGUAUGUACCGAAUCGGGGUUUUUUUGGGGAAAGGGGUGGGGAAAGUAUUAUGUUACGCCGUUCGGAUCUGCAC | 0.483
CUCAAGUCCUGUGCUACACAUCGUAUGUACCGAAUCGGAAAGGGAAAGGAAAGGAAAGUAUUAUGUUACGCCGUUCGGAUCUGCACUUCC | -0.606
UCCUGUGCUACACAUCGUAUGUACCGAAUCGGGGCCCCCGGGGCCCCCGGGCCCCCGGGGAAAGUAUUAUGUUACGCCGUUCGGAUCUGC | -0.918
AGUCCUGUGCUACACAUCGUAUGUACCGAAUCGGGCCCCGGGGCCCCGGGGCCCCGGGAAAGUAUUAUGUUACGCCGUUCGGAUCUGCAC | -0.0567
UGGCCCUGGUGGCAUGCGGGGAGGAAGAGGUGGCCUCAUGGAUCGUGGUGGUCCCGGUGGAAUGUUCAGAGGUGGCCGUGGUAGAGACAG | -0.0966
CAAGUCCUGUGCUACACAUCGUAUGUACCGAAUCGGAAAAAGGAGGUUUUUUUGGAAAGUAUUAUGUUACGCCGUUCGGAUCUGCACUUC | -0.717

Repeated from above (set 4):
Sequence | log2 enrichment
AGUCCUGUGCUACACAUCGUAUGUACCGAAUCGGGUUUUUGGGAAAGGGUUUUUGGGAAAGUAUUAUGUUACGCCGUUCGGAUCUGCACU | 0.241
CCUGUGCUACACAUCGUAUGUACCGAAUCGGGUUUUUUGGGGUUUUUUGGGUUUUUUGGGGAAAGUAUUAUGUUACGCCGUUCGGAUCUG | -0.543
CACAGACAACACGCACCCACACAAAAACAGAGGGAAGGGGUUGGGAUGGGGACAGGGUGCACAGCAGGGCGGGGUAGGACCCCAGCCCCU | 1.19
UCAAGUCCUGUGCUACACAUCGUAUGUACCGAAUCGGAAAGGUUUUUUUGGAGGAAAGUAUUAUGUUACGCCGUUCGGAUCUGCACUUCC | -0.835
GUCCUGUGCUACACAUCGUAUGUACCGAAUCGGGGUUUUUUUGGGGAAAGGGGUGGGGAAAGUAUUAUGUUACGCCGUUCGGAUCUGCAC | 0.483
CUCAAGUCCUGUGCUACACAUCGUAUGUACCGAAUCGGAAAGGGAAAGGAAAGGAAAGUAUUAUGUUACGCCGUUCGGAUCUGCACUUCC | -0.606
UCCUGUGCUACACAUCGUAUGUACCGAAUCGGGGCCCCCGGGGCCCCCGGGCCCCCGGGGAAAGUAUUAUGUUACGCCGUUCGGAUCUGC | -0.918
AGUCCUGUGCUACACAUCGUAUGUACCGAAUCGGGCCCCGGGGCCCCGGGGCCCCGGGAAAGUAUUAUGUUACGCCGUUCGGAUCUGCAC | -0.0567
